Results collected from several papers.
A part holds a random share of what one study measured. Changes are numbered by the printed parent chain.

Sample 1 — technique: protein-binding microarray; molecule type: double-stranded DNA, one strand shown; sample: in vitro; tested at: not given; direction: higher = stronger binding
Target: Microphthalmia-associated transcription factor, full length (MITF, Homo sapiens, UniProt O75030-10, residues 1-413)
Setting: k-mer, scored over probes, only values ≥0.25
Construct (chain): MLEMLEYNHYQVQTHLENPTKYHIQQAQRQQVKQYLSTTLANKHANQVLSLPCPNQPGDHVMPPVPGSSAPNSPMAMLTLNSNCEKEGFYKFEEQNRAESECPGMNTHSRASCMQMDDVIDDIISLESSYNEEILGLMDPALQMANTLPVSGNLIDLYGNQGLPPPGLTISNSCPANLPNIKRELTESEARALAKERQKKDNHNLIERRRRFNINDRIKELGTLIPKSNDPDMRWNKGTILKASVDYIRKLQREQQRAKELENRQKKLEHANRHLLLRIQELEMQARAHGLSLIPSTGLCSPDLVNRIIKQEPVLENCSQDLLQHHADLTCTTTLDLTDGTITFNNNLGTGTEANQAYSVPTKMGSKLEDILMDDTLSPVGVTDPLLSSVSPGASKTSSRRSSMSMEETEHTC
Strand	E-score
ACGGGGC	0.278
CATGAGA	0.3
CACGCGG	0.425
AACACGT	0.345
CGGTCAC	0.324
CACCTGA	0.393
CACGAGC	0.362
ATCACAA	0.267

Sample 2 — target: CCNB2, cyclin fold, Cln2 fusion (human); technique: yeast growth competition, sequencing; sample: yeast; setting: strong parent motif; reference: not given; direction: higher = stronger binding; parent: viral docking peptide; TSVRRALFTGGSD
Substitution	normalised enrichment score
L7A	0.251
A6Q	1.35
R5I	0.191
F8R	0.324
A6F	0.703
S12E	1.22
G11M	0.793
S12I	0.96
F8V	0.349
L7Q	0.0853
G10H	0.568
G11K	0.786
T9D	0.634
G10I	0.449
S12C	0.766
R5A L7A	-0.207
R4P	-0.0477
T9C	0.708
A6M	0.53
R5L	-0.219
S2N	0.746
G11P	1.27
S2K	0.647
V3L	0.896
V3P	-0.0847

Sample 3 — read-out: peptide-MHC binding; molecule type: peptide; tested at: concentration not given
Target: HLA class I histocompatibility antigen, A alpha chain, allele A*80:01 (Homo sapiens, UniProt P04439)
Sequence	binding
KPKHLYVSM	inactive
SSEADCFTY	inactive
KLKSVGKAY	inactive
ETKKRMDYF	inactive

Sample 4 — technique: protein-binding microarray; molecule type: double-stranded DNA, one strand shown; sample: in vitro; tested at: 2540 nM top; setting: 60-bp whole probe; together with: salmon DNA 0.4 mg/ml; reference: random background probes; direction: higher = stronger binding; constant ends, left off below: GCCTAGCAC … GTCTTGATTCGCTTGACGCTGCTG
Target: Interferon regulatory factor 3, full length, phosphomimetic (IRF3, Homo sapiens, UniProt Q14653, residues 1-427, S386D/S396D/S398D/S402D/T404D/S405D)
Residues (chain): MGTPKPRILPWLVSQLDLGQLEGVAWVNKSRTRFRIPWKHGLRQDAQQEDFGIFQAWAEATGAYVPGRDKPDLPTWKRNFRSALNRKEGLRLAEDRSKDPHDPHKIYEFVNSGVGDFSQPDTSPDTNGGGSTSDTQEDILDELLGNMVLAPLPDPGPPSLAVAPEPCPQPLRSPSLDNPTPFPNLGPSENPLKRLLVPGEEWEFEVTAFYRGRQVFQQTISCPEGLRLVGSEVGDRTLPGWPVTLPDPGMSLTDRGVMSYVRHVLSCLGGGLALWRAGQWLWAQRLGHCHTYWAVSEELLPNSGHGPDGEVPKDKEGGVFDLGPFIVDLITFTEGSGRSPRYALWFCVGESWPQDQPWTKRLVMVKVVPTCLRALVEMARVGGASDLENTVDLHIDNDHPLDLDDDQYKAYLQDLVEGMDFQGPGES
Strand	fitted relative affinity [z-score]
GACGGACTGGGGAATCGGGACGTGCTA	-0.751
CAGGGTTTCAGATGCGTGAGGTGCTAG	0.756
TTAGGTTTCCATATCCTTTAGTGCTAG	7.11
GACGGTTTCGACTATCGGCACGTGCTA	2.8
GACGGTGTCCTTTTCCTGACGTGCTAG	4.35
GACGATTTCCTTTTCCTGACGTGCTAG	7.18
GACGGAATGGGTATCGGGACGTGCTAG	0.099
TTAGATATCAGTCTCGGTTAGTGCTAG	1.38

Sample 5 — technique: RNA Bind-n-Seq; molecule type: RNA; sample: in vitro; tested at: 1 µM; setting: whole 134-nt RNA, ends assumed; together with: 150 mM KCl; reference: input library; direction: higher = stronger binding
Target: Ras GTPase-activating protein-binding protein 1, RRM domain (G3BP1, Homo sapiens, UniProt Q13283)
Sequence of UniProt Q13283 (whole entry, looked up): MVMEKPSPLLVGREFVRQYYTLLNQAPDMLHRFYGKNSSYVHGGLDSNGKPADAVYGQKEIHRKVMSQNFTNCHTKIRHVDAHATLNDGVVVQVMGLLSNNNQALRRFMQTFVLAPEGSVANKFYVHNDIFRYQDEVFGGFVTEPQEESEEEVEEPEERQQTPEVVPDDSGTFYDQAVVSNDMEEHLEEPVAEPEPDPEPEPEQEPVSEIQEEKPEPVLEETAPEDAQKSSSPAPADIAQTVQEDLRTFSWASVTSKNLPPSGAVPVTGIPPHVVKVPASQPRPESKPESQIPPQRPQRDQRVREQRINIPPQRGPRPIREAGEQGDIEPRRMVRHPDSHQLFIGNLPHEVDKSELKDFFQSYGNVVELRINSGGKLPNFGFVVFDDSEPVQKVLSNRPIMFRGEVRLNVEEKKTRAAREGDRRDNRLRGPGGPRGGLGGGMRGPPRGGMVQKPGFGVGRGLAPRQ
Constant ends, left off below: GGGAGUUCUACAGUCCGACGAUC … UGGAAUUCUCGGGUGUCAAGG
Strand	log2 enrichment
GAGGAGCUGCUGCUGGAGCCCGAGCCGGAGCCCGAGCCCGAAGAGGAGCCGCCCCGGCCCCGCGCCCCCCCGGGAGCUCCGGGCCCUGGG	-0.91
CAAGUCCUGUGCUACACAUCGUAUGUACCGAAUCGGGCCCGGGGCCCGGGGCCCGGAAAGUAUUAUGUUACGCCGUUCGGAUCUGCACUU	-1.13
CUCAAGUCCUGUGCUACACAUCGUAUGUACCGAAUCGGUGGAGGAAAAAAAGGAAAGUAUUAUGUUACGCCGUUCGGAUCUGCACUUCCA	-0.218
UGCGGGACAAAGAAGUGGCCAAUCGAUACUUUACCACUGUCUGUGUGAGAUUACUGCUUGAGAGCAAAGAAAAGAAGAUCAGGGAAUUCA	-0.00171
UCCUGUGCUACACAUCGUAUGUACCGAAUCGGGGAGGGGAAAAAGGGGUUUUUUUGGGGAAAGUAUUAUGUUACGCCGUUCGGAUCUGCA	0.774
GUCCUGUGCUACACAUCGUAUGUACCGAAUCAAACCCAAACCCCCAAAUUUUUUUAAAAAAGUAUUAUGUUACGCCGUUCGGAUCUGCAC	-0.482
ACCAUGCAGGUGGGCAUCUUUGGGAAGUGGGGCAAGGGGGGGAUAGGGAGGGGGGUAACACUUUGGGAACAGGUGGUCCCAUGUCGUUUC	0.309
AAGUCCUGUGCUACACAUCGUAUGUACCGAAUCGGGGAAAAAGGGGUGGGGUGGGGAAAGUAUUAUGUUACGCCGUUCGGAUCUGCACUU	0.684

Repeated from above (sample 2):
Substitution	normalised enrichment score
S12E	1.22
L7Q	0.0853
L7A	0.251
S2N	0.746
